Measurements collected from several papers.
Numbered parts are unrelated; each lists some results of a single study.

Block 1
Target: Histone acetyltransferase KAT6A, winged helix 1, GST fusion (KAT6A, Homo sapiens, UniProt Q92794, residues 1-85)
Method: protein binding microarray
Form: double-stranded DNA, one strand shown
Sample: in vitro
Tested at: not given
Setting: 8-mer, flanks averaged, mean of 2 arrays, mostly near background
Relative to: not given
Direction: higher = stronger binding
Quantity: E-score
Residues (chain): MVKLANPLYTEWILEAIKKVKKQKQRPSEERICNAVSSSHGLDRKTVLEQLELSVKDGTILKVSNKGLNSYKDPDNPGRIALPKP
ACATGTAG: -0.188
CTTAGCCC: 0.0338
CTGGAGTA: -0.0755
ACACCTCA: -0.144
AAACCTGC: -0.191
CTCGTGTC: -0.168
GAGCCGGC: 0.365
ACGTTCCT: -0.104

Block 2
Target: Sal-like protein 4, full length isoform B (SALL4, Homo sapiens, UniProt Q9UJQ4-2, residues 1-616)
Method: universal PBM
Form: double-stranded DNA, one strand shown
Sample: in vitro
Tested at: not given
Setting: 8-mer, flanks averaged, mean of replicates
Direction: higher = stronger binding
Quantity: E-score
CATGAGTC: 0.0942
ACCTTATC: 0.134
GGGTCTGA: -0.188
ATTTGCAG: 0.183
CTCATGAA: 0.121
CGAGTGTC: -0.249
CCCTCGAG: -0.206
ATCAAGAA: 0.214
ACGAACAA: 0.264
CCGCAAAC: -0.0907
CCGCTCAA: -0.0721
CTGGGTTC: -0.227

Block 3
Target: Fragile X messenger ribonucleoprotein 1, C-terminal low-complexity region (Fmr1, Mus musculus, UniProt P35922)
Method: RNA Bind-n-Seq
Form: RNA
Sample: in vitro
Tested at: 200 nM
Setting: whole 134-nt RNA, ends assumed
Together with: 150 mM LiCl
Relative to: input library
Direction: higher = stronger binding
Quantity: log2 enrichment
Each molecule: 7-deaza-guanosine replaces G
Constant ends, left off below: GGGAGUUCUACAGUCCGACGAUC … UGGAAUUCUCGGGUGUCAAGG
CAAGUCCUGUGCUACACAUCGUAUGUACCGAAUCGGGAAAAAGGGAGGGUUUGGGAAAGUAUUAUGUUACGCCGUUCGGAUCUGCACUUC: -1.21
CAAGUCCUGUGCUACACAUCGUAUGUACCGAAUCGGGUUUUUUUGGGUGGGUGGGAAAGUAUUAUGUUACGCCGUUCGGAUCUGCACUUC: -0.541
UGUGCUACACAUCGUAUGUACCGAAUCGGGGCCCCCCCGGGGCCCCCCCGGGCCCCCCCGGGGAAAGUAUUAUGUUACGCCGUUCGGAUC: -2.06
CUGUGCUACACAUCGUAUGUACCGAAUCGGGAAAAAAAGGGGAAAAAAAGGAAAAAAAGGGAAAGUAUUAUGUUACGCCGUUCGGAUCUG: 0.168
CACAGACAACGCGCACCCACACAGACACAGAGGGAAGGGGUUGGGAUGGGGACAGGGUGCACAGCAGGGCGGGGUAGGACCCCAGCCCCU: -0.858

Mixed results
PhoQ, residues 284 288 289 292 302 303 TLSLKA
fold induction (PhoP, residues 12 14 15 18 19 TQCLL (Escherichia coli, UniProt P23836); Sort-seq, refers to: YFP reporter; E. coli; PhoQ-PhoP variant library, together with: 10 µM Mg2+; relative to: high Mg2+ state, higher = stronger signaling): 2.32
